# Results from different studies.
# Lines come from different studies, so protocols differ. Numbers after ± are the reported error.
# Chain of UniProt Q969G3 (whole entry, looked up): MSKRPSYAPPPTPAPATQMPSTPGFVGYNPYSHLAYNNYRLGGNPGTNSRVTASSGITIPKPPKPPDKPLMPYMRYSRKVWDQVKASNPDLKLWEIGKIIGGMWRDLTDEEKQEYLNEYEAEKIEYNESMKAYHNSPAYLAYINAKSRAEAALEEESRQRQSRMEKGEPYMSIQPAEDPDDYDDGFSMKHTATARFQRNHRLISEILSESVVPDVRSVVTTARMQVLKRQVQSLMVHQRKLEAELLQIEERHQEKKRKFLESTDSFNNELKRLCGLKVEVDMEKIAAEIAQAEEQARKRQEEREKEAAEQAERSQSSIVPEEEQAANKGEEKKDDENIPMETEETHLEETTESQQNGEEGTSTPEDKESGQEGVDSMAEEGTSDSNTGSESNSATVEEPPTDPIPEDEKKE
# Chain of UniProt Q9BYT3 (whole entry, looked up): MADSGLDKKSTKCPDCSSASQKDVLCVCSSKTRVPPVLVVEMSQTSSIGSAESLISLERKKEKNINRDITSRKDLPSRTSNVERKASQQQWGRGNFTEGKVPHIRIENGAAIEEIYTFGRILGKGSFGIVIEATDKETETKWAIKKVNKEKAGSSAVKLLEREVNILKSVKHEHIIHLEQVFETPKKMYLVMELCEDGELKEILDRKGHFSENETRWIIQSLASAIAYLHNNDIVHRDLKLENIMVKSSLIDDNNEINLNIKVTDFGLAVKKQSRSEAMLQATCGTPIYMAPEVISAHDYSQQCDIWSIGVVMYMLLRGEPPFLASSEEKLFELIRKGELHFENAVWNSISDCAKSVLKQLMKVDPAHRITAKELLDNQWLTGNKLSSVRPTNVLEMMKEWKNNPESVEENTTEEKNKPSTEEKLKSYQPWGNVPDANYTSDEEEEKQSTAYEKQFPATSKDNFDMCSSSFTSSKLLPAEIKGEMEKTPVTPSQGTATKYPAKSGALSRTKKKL
SMILES,target or system,test,system,setting,scale,endpoint,result
CC(C)C[C@@H]1NC(=O)[C@H](CC(C)C)NC(=O)[C@H](Cc2c[nH]c3ccccc23)NC(=O)[C@H](CO)NC(=O)[C@H](Cc2c[nH]c3ccccc23)NC(=O)[C@@H]2CCCN2C(=O)[C@H](CC(C)C)NC(=O)[C@H](Cc2c[nH]cn2)NC(=O)[C@@H]2CCCN2C(=O)[C@H](CC(N)=O)NC(=O)[C@H](C)NC(=O)[C@H](Cc2ccc(O)cc2)NC(=O)[C@H](CS)NC(=O)[C@H](CCCCNC(=O)CN2CCN(CC(=O)O)CCN(CC(=O)O)CCN(CC(=O)O)CC2)NC1=O [lutetium-177 labelled],,,"Balb/c mouse, female, 4T1 tumour, kidney","intravenous, 3.7 MBq, 72 h",,tissue uptake,0.36 %ID
C[C@H]1CN(c2n[nH]c3nc(N[C@H]4CC[C@H](NS(=O)(=O)CCC(F)(F)F)CC4)ncc23)CCO1,"SWI/SNF-related matrix-associated actin-dependent regulator of chromatin subfamily E member 1 (Homo sapiens, UniProt Q969G3)","Kinobeads competition, measured: SMARCE1",,"0.8 µM, unit not given",relative to: vehicle,remaining binding,1.41
COc1ccc(N2C(=O)N(c3c(C)cccc3Cl)Cc3cnc(Nc4ccc(C5CCN(C)CC5)cc4OC)nc32)nc1,"Serine/threonine-protein kinase 33 (STK33, Homo sapiens, UniProt Q9BYT3)",kinase activity,,0.5 µM,,inhibition,5.68%
N=C(N)NCCC[C@@H]1NC(=O)[C@H](CCCCNC(=O)c2ccc(CNC34CNCCNCC(N)(CNCCNC3)CNCCNC4)cc2)NC(=O)[C@@H](Cc2ccc(O)cc2)NC(=O)[C@H](CC(=O)O)NC(=O)CNC1=O [copper-64 labelled],,microPET,"male athymic nude mouse, PC-3 tumour, liver","intravenous, 7.4 MBq, 48 h",,tissue uptake,0.73 ± 0.13 %ID/g
COc1cc(Nc2ncc(F)c(Nc3ccc4c(n3)NC(=O)C(C)(C)O4)n2)cc(OC)c1OC,"Tyrosine-protein phosphatase non-receptor type 11 (PTPN11, Homo sapiens, UniProt Q06124)",,,SHP-2,,IC50,> 10 µM
CCCCCCCCCC(=O)N[C@@H](Cc1c[nH]c2ccccc12)C(=O)N[C@H](CC(N)=O)C(=O)N[C@@H](CC(=O)O)C(=O)N[C@@H]1C(=O)NCC(=O)N[C@@H](CCCNC(=O)CCC(=O)N2Cc3ccccc3-c3c(nnn3CCC[C@H](NC(=O)CCCCC[N+]3=C(C=CC4=CC(=CC=C5N(C)c6ccccc6C5(C)C)CCC4)C(C)(C)c4ccccc43)C(=O)NCCCCNC(=O)CCC(=O)N3Cc4ccccc4C#Cc4ccccc43)-c3ccccc32)C(=O)N[C@@H](CC(=O)O)C(=O)N[C@H](C)C(=O)N[C@@H](CC(=O)O)C(=O)NCC(=O)N[C@H](CO)C(=O)N[C@@H]([C@H](C)CC(=O)O)C(=O)N[C@@H](CC(=O)c2ccccc2N)C(=O)O[C@@H]1C,,,mouse plasma,"1 µM, up to 240 min, pH 7.4, 37 °C",,half-life,> 4 h
C[C@@H](O)[C@@H](CO)NC(=O)[C@@H](CCCNC(=N)N)NC(=O)[C@@H]1CCCN1C(=O)[C@@H]1CSSC[C@H](NC(=O)[C@H](Cc2ccccc2)NC(=O)CN2CCN(CC(=O)O)CCN(CC(=O)O)CCN(CC(=O)O)CC2)C(=O)N[C@@H](Cc2ccc(O)cc2)C(=O)N[C@@H](Cc2ccccc2)C(=O)N[C@@H](CCC(N)=O)C(=O)N[C@@H](CC(N)=O)C(=O)N1 [gallium-68 labelled],,,"Wistar rat, healthy, Parotid gland","intravenous, 8 MBq, 60 min, mean",,tissue uptake,0.17 %ID/g
COc1cccc2c1C(=O)c1c(O)c3c(c(O)c1C2=O)C[C@@](O)(C(=O)CO)C[C@@H]3O[C@H]1C[C@H](NC(=O)[C@@H]2CCCN2C(=O)CNC(=O)[C@H](CC(C)C)NC(=O)[C@H](C)NC(=O)CP(=O)(O)O)[C@H](O)[C@H](C)O1,,,"healthy mice, plasma","intravenous, 94.4 mg/kg, extrapolated to time zero",,Cmax,701 µM
O=C(O)C[C@H](NC(=O)[C@H](CC(=O)O)NC(=O)[C@H](CC(=O)O)NC(=O)[C@H](CC(=O)O)NC(=O)[C@H](CC(=O)O)NC(=O)[C@H](CC(=O)O)NC(=O)[C@H](CC(=O)O)NC(=O)[C@H](CC(=O)O)NC(=O)[C@H](CC(=O)O)NC(=O)[C@H](CC(=O)O)NC(=O)[C@H](CC(=O)O)NC(=O)[C@H](CCCCNC(=O)c1ccc(C(=O)NCCOCCOB2BBBBBB3BBBB3B2)cc1)NC(=O)CN1CCN(CC(=O)O)CCN(CC(=O)O)CCN(CC(=O)O)CC1)C(=O)O [gallium-67 labelled],,,"ddY male mice, spleen","intravenous, 37 kBq, 3 h",,tissue uptake,0.04 %ID/g
CO[C@H]1C[C@@H]2CC[C@@H](C)[C@@](O)(O2)C(=O)C(=O)N2CCCC[C@H]2C(=O)O[C@H]([C@H](C)C[C@@H]2CC[C@@H](OC(=O)NCCOCCOCCOCCOCCOCCOCCOCCOCCC(=O)N3CCc4cc(Cn5nc(-c6ccc7oc(N)nc7c6)c6c(N)ncnc65)ccc4C3)[C@H](OC)C2)C[C@@H](O)[C@H](C)/C=C(\C)[C@@H](O)[C@@H](OC)C(=O)[C@H](C)C[C@H](C)/C=C/C=C/C=C/1C,,,patients with advanced solid tumours,"intravenous, 8 mg weekly, grade ≥3",,incidence of nausea TEAE,6.3%
CC[C@H](C)[C@H](NC(=O)[C@H](Cc1ccccc1)NC(=O)[C@H](CCC(=O)O)NC(=O)[C@H](CCCNC(=N)N)NC(=O)[C@H](C)NC(=O)[C@H](C)NC(=O)[C@H](CCC(N)=O)NC(=O)[C@H](CCC(=O)O)NC(=O)[C@H](CCC(=O)O)NC(=O)[C@H](CC(C)C)NC(=O)[C@H](Cc1ccc(O)cc1)NC(=O)[C@H](CO)NC(=O)[C@H](CO)NC(=O)[C@@H](NC(=O)[C@H](CC(=O)O)NC(=O)[C@H](CO)NC(=O)[C@@H](NC(=O)[C@H](Cc1ccccc1)NC(=O)[C@@H](NC(=O)CNC(=O)[C@H](CCC(=O)O)NC(=O)[C@H](C)NC(=O)CCc1c[nH]cn1)[C@@H](C)O)[C@@H](C)O)C(C)C)C(=O)N[C@@H](C)C(=O)N[C@@H](Cc1c[nH]c2ccccc12)C(=O)N[C@@H](CC(C)C)C(=O)N[C@H](C(=O)N[C@@H](CCCNC(=N)N)C(=O)NCC(=O)N[C@@H](CCCNC(=N)N)C(=O)N[C@@H](CCCCNC(=O)COCCOCCNC(=O)COCCOCCNC(=O)CC[C@H](NC(=O)CCCCCCCCCCCCCCCCC(=O)O)C(=O)O)C(=O)NCC(=O)NCC(=O)N[C@@H](CO)C(=O)N[C@@H](CCCCNc1c(NCCCCCN(O)C(=O)CCC(=O)NCCCCCN(O)C(=O)CCC(=O)NCCCCCN(O)C(C)=O)c(=O)c1=O)C(=O)O)C(C)C [zirconium-89 labelled],,,"rat, bone marrow","sc, 3 nmol/kg, 72 h, ex vivo",,tissue uptake,0.38 %ID/g
CC[C@H](C)[C@@H]([C@@H](CC(=O)N1CCC[C@H]1[C@H](OC)[C@@H](C)C(=O)N[C@H](C)[C@@H](O)c1ccccc1)OC)N(C)C(=O)[C@@H](NC(=O)[C@H](C(C)C)N(C)C(=O)OCc1ccc(NC(=O)[C@H](CCCNC(=N)N)NC(=O)[C@@H](NC(=O)CCCCCN2C(=O)CC(SC[C@H](NC(=O)[C@H](CC(=O)O)NC(=O)[C@H](CCCNC(=N)N)NC(=O)[C@H](CC(=O)O)NC(=O)CCCCn3cc(CCCC(=O)Nc4nnc(S(N)(=O)=O)s4)nn3)C(=O)O)C2=O)C(C)C)cc1)C(C)C (stereo partly shown),,"LC-MS, measured: intact conjugate",mouse serum,"100 µg/mL, 37 °C",,half-life,1.8 h
Cc1ccccc1NC(=O)Nc1ccc(CC(=O)N[C@@H](CCCCNC(=O)/C=C/c2cccnc2)C(=O)N[C@@H](CCCC(=O)O)C(=O)NC2(C(=O)NCCOCCOCCOCCOCC(=O)N[C@@H](CCCCNC(=S)Nc3ccc(CCCN(CCN4CCN(CC(=O)O)CCN(CC(=O)O)CC4)CP(=O)(O)O)cc3)C(N)=O)CCCCC2)cc1 [gallium-68 labelled],,,human serum,"2 h, 37 °C, 68Ga-labelled",,dissociation,~50%

# Repeated from above:
SMILES,target or system,test,system,setting,scale,endpoint,result
C[C@H]1CN(c2n[nH]c3nc(N[C@H]4CC[C@H](NS(=O)(=O)CCC(F)(F)F)CC4)ncc23)CCO1,"SWI/SNF-related matrix-associated actin-dependent regulator of chromatin subfamily E member 1 (Homo sapiens, UniProt Q969G3)","Kinobeads competition, measured: SMARCE1",,"0.8 µM, unit not given",relative to: vehicle,remaining binding,1.41
CC(C)C[C@@H]1NC(=O)[C@H](CC(C)C)NC(=O)[C@H](Cc2c[nH]c3ccccc23)NC(=O)[C@H](CO)NC(=O)[C@H](Cc2c[nH]c3ccccc23)NC(=O)[C@@H]2CCCN2C(=O)[C@H](CC(C)C)NC(=O)[C@H](Cc2c[nH]cn2)NC(=O)[C@@H]2CCCN2C(=O)[C@H](CC(N)=O)NC(=O)[C@H](C)NC(=O)[C@H](Cc2ccc(O)cc2)NC(=O)[C@H](CS)NC(=O)[C@H](CCCCNC(=O)CN2CCN(CC(=O)O)CCN(CC(=O)O)CCN(CC(=O)O)CC2)NC1=O [lutetium-177 labelled],,,"Balb/c mouse, female, 4T1 tumour, kidney","intravenous, 3.7 MBq, 72 h",,tissue uptake,0.36 %ID
